Experimental data from different studies.
Lines come from different studies, so protocols differ. Numbers after ± are the reported error.

SMILES | tested on | assay | test system | setting | scale | endpoint | result
Cn1cc(-c2ccc(-c3cncc(Cl)c3N3CCC4(CCNC4=O)CC3)cc2)cn1 | COLO 205 | gene expression, microarray, refers to: CDKN1A mRNA | – | concentration not given, 2 h | baseline: untreated cells | log2 fold change | 1.51
CC[C@H](C)[C@H](N)C(=O)OC[C@H]1O[C@@](C#N)(c2ccc3c(N)ncnn23)[C@H](O)[C@@H]1O | human respiratory syncytial virus | viral replication, viral protein ELISA | HEp-2, A2 | 5 days | baseline: CC50 over EC50 | selectivity index | > 68.5
N=C(N)NCCC[C@H](N)C(=O)O | Bacillus subtilis | – | NCIB3610, MOPS medium | 1 mM, 1 mM equimolar amino acid mixture | – | uptake half-time | 7.3 h
CC[C@H](CO)N(CCN(N=O)[C@H](CC)CO)N=O | Salmonella typhimurium | mutagenicity, Ames plate incorporation | TA1537 | 500 µg/plate, without S9, methanol | – | revertant colonies per plate | 12 ± 2
Cc1cc(N)c2c(OCC(C)(C)C(=O)NC(C)C)cccc2n1 | Salmonella typhimurium | reverse mutation, plate incorporation | TA98 | 500 µg/plate, with rat liver S9 | – | mean revertant colonies | 27 colonies/plate
CCC(CC)COC(=O)[C@H](C)N[P@](=O)(OC[C@H]1O[C@@](C#N)(c2ccc3c(N)ncnn23)[C@H](O)[C@@H]1O)Oc1ccccc1 | human respiratory syncytial virus | viral replication, viral protein ELISA | HEp-2, A2 | 5 days | baseline: CC50 over EC50 | selectivity index | 73.8
NC(=O)C[C@H](N)C(=O)O | Bacillus subtilis | – | NCIB3610, MOPS medium | 1 mM, 1 mM equimolar amino acid mixture | – | uptake half-time | 4.5 h
Cc1cc(Nc2ccc(S(F)(F)(F)(F)F)cc2)n2nc(C(C)(F)F)nc2n1 | Plasmodium falciparum | 12-lead ECG | malaria patients | oral, 400 mg, increase above 30 ms | – | patients with QTcB increase | 0%
CC(C)[C@@H](N)C(=O)OC[C@H]1O[C@@](C#N)(c2ccc3c(N)ncnn23)[C@H](O)[C@@H]1O | human respiratory syncytial virus | viral replication, viral protein ELISA | HEp-2, A2 | 5 days | baseline: CC50 over EC50 | selectivity index | > 69.4
NC(=O)CC[C@H](N)C(=O)O | Bacillus subtilis | – | 168, S7 medium | 1 mM, equimolar amino acid mixture | – | uptake half-time | 7.2 h

Excerpt of the above:
SMILES | tested on | assay | test system | setting | scale | endpoint | result
Cc1cc(Nc2ccc(S(F)(F)(F)(F)F)cc2)n2nc(C(C)(F)F)nc2n1 | Plasmodium falciparum | 12-lead ECG | malaria patients | oral, 400 mg, increase above 30 ms | – | patients with QTcB increase | 0%
